Published values pooled from the literature.
Parts stem from different laboratories: compare values within a part only. Changes are numbered by the printed parent chain.

Series 1 — target: CEP164, C-terminal peptide (human); technique: DHFR complementation, deep sequencing; matrix: yeast; reference: wild type; direction: higher = weaker binding; measurement: binding free energy change
Setting: single substitutions, model-inferred values
Parent: PDZK1, PDZ domain 2 (human); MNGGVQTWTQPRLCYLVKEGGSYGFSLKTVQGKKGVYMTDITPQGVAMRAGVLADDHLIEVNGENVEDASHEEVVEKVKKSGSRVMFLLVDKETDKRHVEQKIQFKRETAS; partner HNRVKVYRF
G35R: 0.221 kcal/mol
S111Q: -0.0904 kcal/mol
L58G: 0.533 kcal/mol
A47E: 1.16 kcal/mol
V61K: 1.24 kcal/mol
L89D: 1.63 kcal/mol
E93H: -0.164 kcal/mol
K96W: 0.0758 kcal/mol
S81G: 0.481 kcal/mol
D95A: -0.279 kcal/mol
N62G: 1 kcal/mol
A54N: -0.211 kcal/mol
E93V: -0.073 kcal/mol
D91W: 0.07 kcal/mol
T39P: 1.21 kcal/mol
L27G: 1.13 kcal/mol
G4I: 0.0986 kcal/mol
K18F: 1.27 kcal/mol
R49S: 0.398 kcal/mol
E73Y: -0.214 kcal/mol

Series 2 — technique: protein-binding microarray; form: double-stranded DNA, one strand shown; matrix: in vitro; concentration: 2540 nM top; setting: 60-bp whole probe; with: salmon DNA 0.4 mg/ml; reference: random background probes; direction: higher = stronger binding; measurement: fitted relative affinity; constant ends, left off below: GCCTAGCAC … GTCTTGATTCGCTTGACGCTGCTG
Target: Interferon regulatory factor 3, full length, phosphomimetic (IRF3, Homo sapiens, UniProt Q14653, residues 1-427, S386D/S396D/S398D/S402D/T404D/S405D)
Construct (chain): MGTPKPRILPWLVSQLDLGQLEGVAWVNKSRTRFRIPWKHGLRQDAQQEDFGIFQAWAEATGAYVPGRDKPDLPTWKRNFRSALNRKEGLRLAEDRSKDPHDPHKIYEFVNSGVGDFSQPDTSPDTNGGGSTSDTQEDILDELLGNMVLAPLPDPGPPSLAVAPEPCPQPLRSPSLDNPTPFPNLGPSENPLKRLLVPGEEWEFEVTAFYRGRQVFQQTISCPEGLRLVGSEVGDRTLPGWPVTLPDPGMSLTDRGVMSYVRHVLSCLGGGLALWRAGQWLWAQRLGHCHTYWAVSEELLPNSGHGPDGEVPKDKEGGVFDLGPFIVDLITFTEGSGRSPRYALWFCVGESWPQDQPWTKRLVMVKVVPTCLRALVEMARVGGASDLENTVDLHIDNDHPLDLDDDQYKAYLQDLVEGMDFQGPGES
TCACTTCTTTTTTTTCTACTGTGCTAG: 2.15 z-score
TTAGATATCGGTTTCGATTAGTGCTAG: 5.47 z-score
TCAAGTTGGACCTCTCAGACTGTGCTA: -0.483 z-score
GAGGGTTTCGACTTTCGGGACGTGCTA: 2.56 z-score
AGCCATCTGCAGCAGGCCCCGTGCTAG: -0.886 z-score
TCATTTTTTTCTAACTAACTGTGCTAG: 1.32 z-score
GACGATTCCAGTTTCGGGACGTGCTAG: 3.92 z-score
GACGGTCTCAGTTTCGAGACGTGCTAG: 3.24 z-score
TTAGGACTACTACTGCTTTAGTGCTAG: -0.246 z-score
TTAGGTCTAGGTCTCGGTTAGTGCTAG: -0.404 z-score
TTAGGTATCGACACTGTGTTAGTGCTA: 0.276 z-score
GACGATACCAGTCTCGAGACGTGCTAG: 0.82 z-score
TTAGAATTCAGTATCGATTAGTGCTAG: 1.57 z-score
GACGATTCCAGTTTCGATACGTGCTAG: 4.59 z-score
TCATATTTAAGACCTATGACTGTGCTA: 0.712 z-score
TTAGGACTGGGGACTGGGTTGGTGCTA: -1.19 z-score
TTTATTTTTACATTATTACCGTGCTAG: 1.51 z-score
TAAGGTCTCCTTCTCCTTTAGTGCTAG: 4.05 z-score
TCAGATTTCTCAAACAGACTGTGCTAG: 0.701 z-score
GACGGTATCGGATTGGGGACGTGCTAG: 2.98 z-score
TTAGATTTTAGTATCGATTAGTGCTAG: 1.22 z-score
TCACAAATGCCCTCTCCAACTGTGCTA: 0.333 z-score
TCACATTTTTTTTTTCTACTGTGCTAG: 0.897 z-score
TAAGATATCAGTTTCGATTAGTGCTAG: 4.98 z-score
CATGAATCAGGCATAGCATGGTGCTAG: -0.27 z-score

Series 3 — target: CCNF, cyclin fold, Cln2 fusion (human); technique: yeast growth competition, sequencing; matrix: yeast; setting: strong parent motif; reference: not given; direction: higher = stronger binding; measurement: normalised enrichment score
Parent: BRCA2 docking peptide (human); PSIKRNLLNEFDR
PSIKRNLLNRFDR [E10R]: 1.87
PSIKRNLTNEFDR [L8T]: 1.47
PSIKRNLLNEADR [F11A]: 2.08
PSIKRNLPNEFDR [L8P]: 0.69
PSIKRNLLNEFKR [D12K]: 1.77
PSIKRNLLNEFTR [D12T]: 2.12
PSIKRNLLNEFAR [D12A]: 3.31
PSIKRNLLNETDR [F11T]: 0.78
PSIKRNLLNEDDR [F11D]: 0.228
PSIGRNLLNEFDR [K4G]: 0.513
PSSKRNLLNEFDR [I3S]: 1.09
PSIKRNLLNEFDW [R13W]: 5
PSIQRNLLNEFDR [K4Q]: 2.49
PSIKRNMLNEFDR [L7M]: 1.61
PSIKENLLNEFDR [R5E]: -0.597
PSIKRNLINEFDR [L8I]: 2.23
PSIKCNLLNEFDR [R5C]: -0.332
PDIKRNLLNEFDR [S2D]: 2.53
PSIKRNLLNYFDR [E10Y]: 3.45
PSIKRNLHNEFDR [L8H]: 0.589
PSIKRNDLNEFDR [L7D]: -0.517
PSIKRNLLNMFDR [E10M]: 2.28
PSIKRNLENEFDR [L8E]: 1.42
PSIKRNLLWEFDR [N9W]: 5.41
PSIKRNALNEFDR [L7A]: 0.609

Series 4 — technique: RNA Bind-n-Seq; form: RNA; matrix: in vitro; concentration: 365 nM; reference: no-protein control; direction: higher = stronger binding; measurement: RBNS enrichment (R)
Target: RNA binding protein fox-1 homolog 2, RRM domain, GST-SBP tag (RBFOX2, Homo sapiens, UniProt O43251-10, residues 100-194)
Setting: natural RNA segment, single round, ends assumed
Constant ends, left off below: GGGAGUUCUACAGUCCGACGAUC … UGGAAUUCUCGGGUGCCAA
Residues (chain): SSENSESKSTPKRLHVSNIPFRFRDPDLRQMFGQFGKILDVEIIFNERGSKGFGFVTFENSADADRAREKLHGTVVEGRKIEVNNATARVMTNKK
CUGAUGAUGCCACUACUUGUCACAUUGUGGUCCUGAGGCACACAGGUAAUGGGGCCACCUGCUUGACACAUUGUGACGGAACCGACACCAAAGCUGAGGUCCCCUUGAUC: 0.67
GUUCCUAGUGAUGUGGAGGUUUAUGGGUGAAAAAUUAGUGGAGAGGGAACUCCUCUCCCCCAUUUUGUGUAGAGUGAAAAUAGCCUGAAGCCCCUACUCAGCAGGGCUCU: 0.848
ACAAAUGUGAAUCAAGCAGUCCGGCAUUCUGGAAAGCCUUGGCAUGGUUCUGUAAAGCUCUUGUACCGCUGGAGAAACGGCAUCACUAUAAGCUAUGAGUUGAACUGUUU: 0.507
UGUUAACCUUCAUGUGACAAAACAAGGAUAUAUUCUUGCUGCUACGACAUGCUUUUGACUCAGUAUGACUGGAAGAGUUUUGGACCACUGAAUCCUGUCUUAAUUAAAAG: 0.262
GACUUUCUGUGCAGGAAUCAGUGUUGCUUGAGCGUGUGGCUGUAUUCACUGACAAGAGAAUAGAAACAAUAUGCCCACAUUGCUAUGUUUAUAAUUGCCAGAGCAGUAUU: 1.23
GAGCUCAGUGGACCCACCCCGCUUGCUGAACCCUCACAGUUCUUGGGGUUGUCCAGCCUGGACUUGUAGCACACAUGUCCUGAAGCAAAGCUCCGGUGACUGCAUGAGCC: 2.94
CAAGGACUGCAAGAUUAUUUGAUAAAGAGUAGCAUGAAUCUUGUGCUCUAAUAUUACACAGUAAGUUCAAAGAAAGGAUGUAAGUCAAAGACUUGUUACAUAGAGGGAAA: 18.3
AGUUUUGCCUGUCUAUAAAAGAUGAUAGUAAUUUACCAAGUGACAUUUGCAGAGAAACAGGUGUACAGUUAUCGUUGUACUUUUGUACAAUGUGAAUUUUGUUAAUAAAU: 0.441
CAGGUGGAACUGCCAGUAUAGAAAGGAUUCUAUGCUGGGCACACAGGACUAUCUCUUUAUGGAAGGAGACAUAUGGGAACAUCCACCACUACCCUCUCCUACCAUCUUCC: 0.284
GGAACUACAUCAGCGCCCACACUGGACCACAGACGGAGGCAGAUGAGGGCUCCAAGGCCGGAAGUCCUCCCUUCCUCCCUGUCUGCUCUCAUGCUCUCCGCCCUGUUCUA: 0.265
UUCAUGGUUGAAACUCAACUUAGGGAAAGGGUUCCAAUGUAUUAAGCAAUGGGCUGCUUCUCCCCAAUCCUCCCUAACAAUUCGUUGUGUGGACUUCUCAUCUAAAAGGU: 0.274
AGUAUCAGCGAGGAGGGGCUUGUCUCCUUCAGAGUUAACAUGGAGGACGAUUGGAGAAUCUCCCUGCCUGUUUGGACUUUGUAAUUAUUUUUUAGCCGUAAUUAAAGAAA: 1.28

Series 5 — target: NFE2L3, bZIP domain (human); technique: DHFR protein complementation; matrix: yeast; reference: wild-type JUN-FOS pair; direction: higher = stronger binding; measurement: binding fitness
Setting: single substitutions, most at no-binding floor
Parent: JUN, bZIP domain (human); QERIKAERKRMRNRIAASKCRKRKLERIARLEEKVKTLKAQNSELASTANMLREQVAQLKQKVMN; partner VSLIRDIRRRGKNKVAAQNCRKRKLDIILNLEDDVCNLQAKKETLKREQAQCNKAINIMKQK
A40N: -1.38 natural log
V35R: -1.51 natural log
R30H: -1.55 natural log
A40H: -1.42 natural log
T48M: -1.48 natural log
Q41M: -1.54 natural log
K39S: -1.55 natural log
I28W: -1.57 natural log
L52D: -1.56 natural log
A46I: -1.51 natural log
E54K: -1.22 natural log
T37H: -1.32 natural log
S47L: -1.34 natural log
R30C: -1.52 natural log
E33P: -1.46 natural log
T48E: -1.37 natural log
I28F: -1.53 natural log
K36I: -1.55 natural log
S47A: -1.49 natural log
T37E: -1.53 natural log
A40P: -1.51 natural log
Q41E: -1.6 natural log
